{"data": "Results gathered from unrelated publications", "note": "Each numbered part is a random draw from the data of one study; scales do not carry over between parts. Several values in a cell are separate wells, animals, samples, runs or records."}
{"data": "Study 1", "Structure (SMILES)": "CCN(CC)CC(=O)N1CCN(c2nc(NCc3nc4cc(Cl)c(Cl)cc4[nH]3)c3ncn(CC)c3n2)CC1", "read-out": "cell viability", "method": "CellCounting-Lite", "temperature": "37 °C", "reading": "higher = more viable cells"}
{"cell line": "MDA-MB-231", "conditions": "125 nM", "luminescence signal": "6760 a.u. and 6540 a.u. and 7910 a.u."}
{"cell line": "MDA-MB-231", "conditions": "1.953 nM", "luminescence signal": "69700 a.u. and 71800 a.u. and 63500 a.u."}
{"cell line": "MDA-MB-468", "conditions": "0.4883 nM", "luminescence signal": "35700 a.u. and 37800 a.u. and 40300 a.u."}
{"cell line": "MDA-MB-231", "conditions": "0.03052 nM", "luminescence signal": "474000 a.u. and 447000 a.u. and 458000 a.u."}
{"cell line": "MDA-MB-231", "conditions": "7.812 nM", "luminescence signal": "9360 a.u. and 8320 a.u. and 8000 a.u."}
{"cell line": "MDA-MB-468", "conditions": "31.25 nM", "luminescence signal": "10300 a.u. and 10400 a.u. and 10100 a.u."}
{"data": "Study 2", "Compound": "Cc1ncsc1-c1ccc(C(CO)NC(=O)C2CC(O)CN2C(=O)C(C(C)C)n2cc(-c3ccc(COc4c(-c5c(C)c(F)cc6[nH]ncc56)c(C5CC5)cc5c(N6CC7CC6CN7)nc(OC6CCOCC6)nc45)cc3)nn2)cc1 (stereo not shown)", "target": "GTPase KRas (KRAS, Homo sapiens, UniProt P01116, G12D)", "mode": "degrader", "method": "western blot", "host": "mouse, PK-59 xenograft", "matrix": "tumour", "setting": "unit not given", "baseline": "β-actin"}
{"conditions": "30 mg/kg, 2 h", "KRAS G12D level": "0.0939 and 0.0917 and 0.1"}
{"conditions": "10 mg/kg, 144 h", "KRAS G12D level": "0.0423 and 0.0352 and 0.0446"}
{"conditions": "10 mg/kg, 48 h", "KRAS G12D level": "0.0339 and 0.034 and 0.024"}
{"conditions": "10 mg/kg, 24 h", "KRAS G12D level": "0.0196 and 0.012 and 0.0182"}
{"conditions": "10 mg/kg, 72 h", "KRAS G12D level": "0.0057 and 0.0187 and 0.0116"}
{"conditions": "30 mg/kg, 6 h", "KRAS G12D level": "0.0795 and 0.0134 and 0.0446"}
{"data": "Study 3", "Compound": "CCN1/C(=C/C=C2\\CCCC(/C=C/C3=[N+](CC)c4ccccc4C3(C)C)=C2NCCCCCCCCN2CCC(Nc3nc4ccccc4n3Cc3ccc(F)cc3)CC2)C(C)(C)c2ccccc21", "cell line": "U-87 MG", "tested at": "concentration not given", "baseline": "DMSO"}
{"test": "measured: NEFM mRNA", "log2 fold change": -3.91}
{"test": "measured: FANCM mRNA", "log2 fold change": -1.31}
{"test": "measured: SELENOI mRNA", "log2 fold change": 0.903}
{"test": "measured: CAMKK1 mRNA", "log2 fold change": -2.16}
{"test": "measured: MED12L mRNA", "log2 fold change": 1.27}
{"test": "measured: TAF4B mRNA", "log2 fold change": 1}
{"test": "measured: WDR90 mRNA", "log2 fold change": -1.11}
{"test": "measured: CLK1 mRNA", "log2 fold change": 1.79}
{"test": "measured: CCR1 mRNA", "log2 fold change": -4.06}
{"test": "measured: BTBD6 mRNA", "log2 fold change": -0.888}
{"test": "measured: GM2A mRNA", "log2 fold change": -0.815}
{"data": "Study 4", "Structure (SMILES)": "O=C(O)C1(O)Oc2ccccc2N(Cc2ccccc2)C1=O (stereo not shown)"}
{"organism": "Arabidopsis thaliana", "test": "root length", "system": "Col-0", "conditions": "50.0 µg/mL, 7 days, seed germination, dark", "inhibition": "22%"}
{"organism": "Arabidopsis thaliana", "test": "root length", "system": "Col-0", "conditions": "100 µg/mL, 7 days, seed germination, dark", "inhibition": "45.6%"}
{"organism": "Arabidopsis thaliana", "test": "root length", "system": "Col-0, seedlings", "conditions": "100 µg/mL", "inhibition": "43.6%"}
{"organism": "Setaria viridis", "test": "fresh weight", "conditions": "150 g ai/ha, pre-emergence treatment", "inhibition": "74.4% and 78.1%"}
{"organism": "Oryza sativa", "test": "fresh weight", "conditions": "soil surface spray, 150 g ai/ha, 21 days, pre-emergence crop safety", "inhibition": "4% and 5% and 4.8%"}
{"organism": "Eclipta prostrata", "test": "fresh weight", "conditions": "150 g ai/ha, post-emergence treatment", "inhibition": "53.7% and 47.7% and 47%"}
{"organism": "Alopecurus aequalis", "test": "fresh weight", "conditions": "150 g ai/ha, pre-emergence treatment", "inhibition": "100%"}
{"organism": "Arabidopsis thaliana", "test": "hypocotyl length", "system": "Col-0, seedlings", "conditions": "6.25 µg/mL", "inhibition": "8.46%"}
{"organism": "Arabidopsis thaliana", "test": "hypocotyl length", "system": "Col-0", "conditions": "3.125 µg/mL, 7 days, seed germination, dark", "inhibition": "1.1%"}
{"organism": "Arabidopsis thaliana", "test": "root length", "system": "Col-0, seedlings", "conditions": "3.125 µg/mL", "how to read": "baseline: water control", "inhibition": "6.2%"}
{"organism": "Arabidopsis thaliana", "test": "root length", "system": "Col-0, seedlings", "conditions": "100 µg/mL", "how to read": "baseline: water control", "inhibition": "43.6%"}
{"organism": "Arabidopsis thaliana", "test": "root length", "system": "Col-0, seedlings", "conditions": "12.5 µg/mL", "inhibition": "4.59%"}
{"organism": "Arabidopsis thaliana", "test": "hypocotyl length", "system": "Col-0", "conditions": "6.25 µg/mL, 7 days, seed germination, dark", "inhibition": "0.9%"}
{"organism": "Arabidopsis thaliana", "test": "root length", "system": "Col-0", "conditions": "12.5 µg/mL, 7 days, seed germination, dark", "inhibition": "7.9%"}
{"note": "Some of these lines once more (study 4):"}
{"organism": "Arabidopsis thaliana", "test": "hypocotyl length", "system": "Col-0, seedlings", "conditions": "6.25 µg/mL", "inhibition": "8.46%"}
{"organism": "Arabidopsis thaliana", "test": "hypocotyl length", "system": "Col-0", "conditions": "3.125 µg/mL, 7 days, seed germination, dark", "inhibition": "1.1%"}
{"organism": "Arabidopsis thaliana", "test": "root length", "system": "Col-0, seedlings", "conditions": "3.125 µg/mL", "how to read": "baseline: water control", "inhibition": "6.2%"}
{"organism": "Arabidopsis thaliana", "test": "root length", "system": "Col-0, seedlings", "conditions": "100 µg/mL", "how to read": "baseline: water control", "inhibition": "43.6%"}
{"organism": "Arabidopsis thaliana", "test": "root length", "system": "Col-0, seedlings", "conditions": "12.5 µg/mL", "inhibition": "4.59%"}
